Assay results gathered from unrelated publications.
Protocols differ between the studies behind these lines. In brackets after ≈: the same amount, converted by molar mass.

SMILES | tested on | assay | system | conditions | scale | quantity | value
CNS(=O)(=O)Nc1nccc(Cc2c(C)c3ccc(Oc4ncccc4F)cc3oc2=O)c1F | Rec1 | cell viability |  | 7 days |  | IC50 | 631 nM
CCN(CC)CC(=O)Nc1cccc(-n2cc(-c3ccc4ccc(-c5cn(-c6cccc(NC(=O)CN(CC)CC)c6)nn5)cc4c3)nn2)c1 | RCC4 | PCR angiogenesis array, measured: EDN1 |  | 5 x IC50, 4 h, normoxia | reference: untreated | fold regulation | -1.68
C=C(NC(=O)c1csc(-c2nc3c(cc2O)-c2nc(cs2)C(=O)NC(C(C)O)C(=O)NC(=C(C)OC)c2nc(cs2)C(=O)NC2c4nc(cs4)C(=O)NC(COC(=O)c4c5c6c(cccc6n4O)COC(=O)C(OC4CC(C)(O)C(N(C)C)C(C)O4)C2OC5)c2nc-3cs2)n1)C(N)=O (stereo not shown) | Staphylococcus aureus | broth microdilution | methicillin-resistant isolates |  |  | MIC90 | 0.0312 µg/mL (≈ 0.0217 µM)
COC1CN([C@H]2CC[C@H]([C@@]3(C)Oc4c(Cl)cc(C(=O)NCc5c(SC)cc(C)[nH]c5=O)c(C)c4O3)CC2)C1 |  | RNA-seq, measured: BCL9 mouse homolog | mouse, HT-1376 xenograft, whole blood | dose not given | reference: vehicle | log2 fold change | 0.108
C=CC(=O)Nc1cccc(Cn2ncc3cnc(Nc4cnn(CCOC)c4)nc32)c1 | PDGFRA human | binding, KINOMEscan |  | 100 nM | lower = stronger binding | percent of control | 69%
C=CC(=O)N1[C@H](c2ccc3c(c2)OCO3)c2[nH]c3ccccc3c2C[C@@H]1C(=O)N1CCN(C)CC1 | human cyclin E1 N112C-3xFLAG:CDK2 | co-IP with TMT proteomics, measured: HSPA9 |  | concentration not given, P38646 | reference: wild type DMSO | relative co-enrichment | 115%
Nc1ncc(-c2cc(-c3cnn(CC(F)(F)F)c3)ncc2F)nc1C(=O)NC1CNCC(F)C1 (stereo not shown) | ITK | KINOMEscan |  | 1 µM | reference: DMSO control | remaining binding | 100%
Cn1ncc2cc(-c3cncc(Cl)c3N3CCC4(CCNC4=O)CC3)ccc21 | LS174T | gene expression, microarray, measured: NDRG1 mRNA |  | concentration not given, 24 h | reference: untreated cells | log2 fold change | 2.54
CN1CCCNC(=O)c2cccc(c2)C(=O)NCCCN(C)CCCNc2cccc3c2C(=O)c2cccc(c2C3=O)NCCC1 | SAS | RNA-Seq, measured: RASL10B mRNA |  | 1 µM, 6 h | reference: untreated cells | log2 fold change | 1.26
Cc1ncsc1-c1ccc(C(C)NC(=O)C2CC(O)CN2C(=O)C(NC(=O)CCCCCCCCCCN2CCCC(Nc3ncc(Cl)c(Nc4ccccc4S(=O)(=O)C(C)C)n3)C2)C(C)(C)C)cc1 (stereo not shown) | 22Rv1 | RNA-seq, measured: SLC7A5 mRNA |  | concentration not given | reference: DMSO | log2 fold change | -1.51

Excerpt of the above:
SMILES | tested on | assay | system | conditions | scale | quantity | value
Cn1ncc2cc(-c3cncc(Cl)c3N3CCC4(CCNC4=O)CC3)ccc21 | LS174T | gene expression, microarray, measured: NDRG1 mRNA |  | concentration not given, 24 h | reference: untreated cells | log2 fold change | 2.54
